Assay results collected from several papers.
Parts stem from different laboratories: compare values within a part only.

Sample 1
Target: PABPC1L2, full length, GST fusion (mouse, UniProt A0ABA7IW68)
Method: RNAcompete
Form: RNA
Sample: in vitro
Tested at: 20 nM
Setting: 7-mer, probes averaged, single round
Reference: mean of 7-mers
Direction: higher = stronger binding
Target sequence (chain): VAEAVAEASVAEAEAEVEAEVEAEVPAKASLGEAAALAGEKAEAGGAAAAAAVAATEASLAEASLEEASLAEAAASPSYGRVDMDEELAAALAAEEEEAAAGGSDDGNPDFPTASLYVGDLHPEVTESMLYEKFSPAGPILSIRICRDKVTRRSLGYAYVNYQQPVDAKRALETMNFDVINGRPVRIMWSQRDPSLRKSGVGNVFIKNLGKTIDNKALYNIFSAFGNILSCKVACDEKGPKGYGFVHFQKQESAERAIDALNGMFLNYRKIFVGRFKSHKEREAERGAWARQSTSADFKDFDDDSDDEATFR
Oligonucleotide | 7-mer Z-score
UAACUUA | -0.0573
GCCCUCA | -0.271
ACCUCGG | -0.231
CUAGGCU | -0.157
GGCAUCA | 0.222

Sample 2
Target: RNA binding protein fox-1 homolog 2, RRM domain, GST-SBP tag (RBFOX2, Homo sapiens, UniProt O43251-10, residues 100-194)
Method: RNA Bind-n-Seq
Form: RNA
Sample: in vitro
Tested at: 365 nM
Setting: natural RNA segment, single round, ends assumed
Reference: no-protein control
Direction: higher = stronger binding
All sequences stand within: GGGAGUUCUACAGUCCGACGAUC … UGGAAUUCUCGGGUGCCAA
Construct (chain): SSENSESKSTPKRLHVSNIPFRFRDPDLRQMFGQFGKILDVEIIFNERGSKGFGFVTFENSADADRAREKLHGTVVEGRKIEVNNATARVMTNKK
Oligonucleotide | RBNS enrichment (R)
GCCAGGGAACUCUUCUCCUCGCGGGGGACUUGGGAUGGCCAUCAGACCUUCUAGGGUCUGGCUGGGGUCAUCCUAGGUAUGGGUGACCGUCCCUGAGACAUAAGCGAGGU | 0.217
GCCUUCCAGAUGUUCAGAUAGUCAAAGCUUCUCUCUACCUUGUUUUCCCUCAAUGCAUGUAAUUAAACACUUGUGGAAAUCGCUUUAACAAUAAACAGGAAAUGAGCCUA | 20.3
UUCUAUUUGUCAGCUGUUGCUGCUGAGCCUGCUGGUGAACACCAUUGCAAGCAGUUGCUGAGCCUGCUGGUGAACACCAUUGCAAGCAGUUGCUGAGCCUGCUCGUGAAC | 9.56
UCCUUGUAGUCCAGGUGAUCAGUGGCCAACAACUCCCCAAAGUGGAUAAAACCAAAGAGACAACCGUUGUGGAUCCACUGGUGAAAGUAGAGCUCUAUGGUGUUCCUGAA | 0.454
UCUCACAUUAAUAUCUGAAGUGCUUGUAUUAAAAGUAAAGAAAGGUAACUAAGGGAAUUUGUUUCAGUCUGGUUCUCCACUUACUAUACUGUGUUUUCAAGGUAAAUGGU | 0.311
UGAACAGGGUGGAGGGGUGUGGGAAAGAAACCAGCCAUAUUGGUUUUGGUUUCUGUAUUUUUCACAAUGAUUAAUGAACAAAAACAAAGAGAAAAAAACACACAUCAAUU | 0.508
UCCUGCUGCUGUUACCAGCCAUGUGGGCCCCAUAGGGGCACUGCGCCUGCUGCCCUUUCCUGGCAGGGCUGGUGGAGUCUUCCCUCAAAGCAUGCCUUACCCAGCUGGGA | 1.02
UUGCCCUCCUCCUUCAGCCUGCCCCUGCCUUGGGCUGCCCUUCCCCUGGUGUACUCCUGAGGUGUCUGCCCCAGCUGGCUGCCCUGGGAGAGUGGCUGGAUGGCUUUGGC | 0.239

Sample 3
Target: Centromere-binding protein 1, full length, His-tagged (CBF1, Saccharomyces cerevisiae, UniProt P17106, residues 1-351)
Chain of UniProt P17106 (whole entry, looked up): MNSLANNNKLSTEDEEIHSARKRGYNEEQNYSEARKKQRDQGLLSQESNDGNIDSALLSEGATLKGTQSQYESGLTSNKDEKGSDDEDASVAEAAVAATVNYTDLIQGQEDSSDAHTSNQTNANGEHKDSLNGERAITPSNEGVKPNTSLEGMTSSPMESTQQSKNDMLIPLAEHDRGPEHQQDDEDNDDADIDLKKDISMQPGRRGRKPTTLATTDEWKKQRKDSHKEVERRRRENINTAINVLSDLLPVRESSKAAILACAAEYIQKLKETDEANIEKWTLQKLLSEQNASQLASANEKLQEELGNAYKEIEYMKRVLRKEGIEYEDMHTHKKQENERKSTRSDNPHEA
Method: competition protein-binding microarray
Form: double-stranded DNA, one strand shown
Sample: in vitro
Tested at: 2 µM
Setting: whole 60-bp probe, lowest competitor level
Added: Pho4 competitor, 0.05 µM
Direction: higher = stronger binding
All sequences stand within: … GTCTTGATTCGCTTGACGCTGCTG
Oligonucleotide | fluorescence intensity
GGCACTAGTTTGTGTCCCGTGGTGATTGCTGTATAA | 225 a.u.
CTTCTGTAAATTTGAGATGTGGGTGGACGCGCCCCG | 91.1 a.u.
TTATCAGTGCTAAAGCACGATCCAAGTGGTGGCACA | 69.1 a.u.
TCTAACCAATTGTTCCCCGTGAGATGCTTTCTCTGA | 96.8 a.u.
TTCTACTATCCGTGAAGCGTGACGGGCCCTTCTCAA | 120 a.u.
GTATTTTAACCACTGCTCGTGAAGACCACTCCAGTG | 103 a.u.
CAACATCAGCGCTGTCATGCGGTCTTTGAAATTCCT | 87.2 a.u.

Other studies, line by line
Substance | target | assay | system | conditions | how to read | measurement | result
PhoQ, residues 284 288 289 292 302 303 SLANKL | PhoP, residues 12 14 15 18 19 TPWTL (Escherichia coli, UniProt P23836) | Sort-seq, refers to: YFP reporter | E. coli | PhoQ-PhoP variant library, added: 10 µM Mg2+ | reference: high Mg2+ state, higher = stronger signaling | fold induction | 14

A few entries again (sample 1):
Oligonucleotide | 7-mer Z-score
GGCAUCA | 0.222
ACCUCGG | -0.231
